Results of several laboratories.
Lines come from different studies, so protocols differ. ± marks the error that the study gave.
hly: hly (Listeria monocytogenes, UniProt P13128)
cyp121: Mycocyclosin synthase (cyp121, Mycobacterium tuberculosis, UniProt P9WPP7)

Protein sequences, listed by entry. Tags and fused reporters are not part of them. Residues count along the entry.
UniProt P9WPP7, whole entry: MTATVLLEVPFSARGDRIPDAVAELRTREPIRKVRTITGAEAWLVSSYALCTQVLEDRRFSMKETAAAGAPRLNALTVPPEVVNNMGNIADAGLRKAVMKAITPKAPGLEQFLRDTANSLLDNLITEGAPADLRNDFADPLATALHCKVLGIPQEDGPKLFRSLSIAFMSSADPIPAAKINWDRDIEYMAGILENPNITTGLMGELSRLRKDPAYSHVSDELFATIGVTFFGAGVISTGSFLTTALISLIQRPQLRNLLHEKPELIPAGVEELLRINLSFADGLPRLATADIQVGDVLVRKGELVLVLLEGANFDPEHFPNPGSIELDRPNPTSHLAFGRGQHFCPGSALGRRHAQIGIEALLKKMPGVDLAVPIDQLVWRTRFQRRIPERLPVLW
UniProt Q8N3R9, 256-336 F318W limits assumed: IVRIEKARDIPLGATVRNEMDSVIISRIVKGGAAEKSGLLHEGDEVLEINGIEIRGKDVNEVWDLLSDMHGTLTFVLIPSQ
UniProt P00433, 31-338 limits assumed: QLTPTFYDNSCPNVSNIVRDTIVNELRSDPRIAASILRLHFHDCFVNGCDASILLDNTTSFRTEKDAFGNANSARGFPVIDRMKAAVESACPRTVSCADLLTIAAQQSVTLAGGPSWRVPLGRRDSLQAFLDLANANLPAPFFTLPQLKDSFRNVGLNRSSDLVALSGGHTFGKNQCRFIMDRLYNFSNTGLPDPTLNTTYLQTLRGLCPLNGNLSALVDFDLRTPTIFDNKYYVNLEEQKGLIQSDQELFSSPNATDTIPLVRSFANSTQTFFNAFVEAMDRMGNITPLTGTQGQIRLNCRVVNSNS
UniProt P71716, whole entry: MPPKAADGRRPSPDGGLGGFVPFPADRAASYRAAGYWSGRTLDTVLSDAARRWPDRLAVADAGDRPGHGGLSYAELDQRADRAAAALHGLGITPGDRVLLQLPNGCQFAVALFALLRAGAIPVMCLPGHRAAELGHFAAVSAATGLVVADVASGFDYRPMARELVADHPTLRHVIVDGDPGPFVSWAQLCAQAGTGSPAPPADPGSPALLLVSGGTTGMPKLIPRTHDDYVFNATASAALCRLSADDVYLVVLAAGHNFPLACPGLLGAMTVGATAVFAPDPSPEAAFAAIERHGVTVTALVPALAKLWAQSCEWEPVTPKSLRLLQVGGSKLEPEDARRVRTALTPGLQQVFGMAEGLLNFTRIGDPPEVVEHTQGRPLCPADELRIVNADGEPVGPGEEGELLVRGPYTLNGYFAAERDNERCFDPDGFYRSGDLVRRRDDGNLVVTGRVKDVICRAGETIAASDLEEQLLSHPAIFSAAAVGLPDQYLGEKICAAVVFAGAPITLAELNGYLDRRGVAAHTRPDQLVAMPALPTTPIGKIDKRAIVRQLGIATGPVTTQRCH
UniProt P35368, whole entry: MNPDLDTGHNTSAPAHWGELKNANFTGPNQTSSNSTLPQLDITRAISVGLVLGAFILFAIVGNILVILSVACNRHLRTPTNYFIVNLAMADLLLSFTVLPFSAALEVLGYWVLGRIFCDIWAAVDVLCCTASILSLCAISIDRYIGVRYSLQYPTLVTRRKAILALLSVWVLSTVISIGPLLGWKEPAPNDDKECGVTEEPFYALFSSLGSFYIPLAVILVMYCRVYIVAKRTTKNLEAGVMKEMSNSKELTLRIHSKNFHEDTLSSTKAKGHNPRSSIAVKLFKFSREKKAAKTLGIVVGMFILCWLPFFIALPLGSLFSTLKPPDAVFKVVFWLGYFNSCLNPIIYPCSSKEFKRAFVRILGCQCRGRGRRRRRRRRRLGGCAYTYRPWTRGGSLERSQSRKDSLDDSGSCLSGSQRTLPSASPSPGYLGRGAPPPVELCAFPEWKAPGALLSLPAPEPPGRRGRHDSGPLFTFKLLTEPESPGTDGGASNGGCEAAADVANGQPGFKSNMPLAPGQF
UniProt Q8WSF8, 18-236 limits assumed: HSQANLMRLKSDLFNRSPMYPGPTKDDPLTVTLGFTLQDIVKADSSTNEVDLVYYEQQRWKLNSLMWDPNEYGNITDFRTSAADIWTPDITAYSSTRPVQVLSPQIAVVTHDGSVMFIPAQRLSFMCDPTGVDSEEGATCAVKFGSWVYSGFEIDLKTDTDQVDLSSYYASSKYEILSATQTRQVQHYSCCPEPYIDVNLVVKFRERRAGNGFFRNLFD
UniProt P00533, whole entry, looked up: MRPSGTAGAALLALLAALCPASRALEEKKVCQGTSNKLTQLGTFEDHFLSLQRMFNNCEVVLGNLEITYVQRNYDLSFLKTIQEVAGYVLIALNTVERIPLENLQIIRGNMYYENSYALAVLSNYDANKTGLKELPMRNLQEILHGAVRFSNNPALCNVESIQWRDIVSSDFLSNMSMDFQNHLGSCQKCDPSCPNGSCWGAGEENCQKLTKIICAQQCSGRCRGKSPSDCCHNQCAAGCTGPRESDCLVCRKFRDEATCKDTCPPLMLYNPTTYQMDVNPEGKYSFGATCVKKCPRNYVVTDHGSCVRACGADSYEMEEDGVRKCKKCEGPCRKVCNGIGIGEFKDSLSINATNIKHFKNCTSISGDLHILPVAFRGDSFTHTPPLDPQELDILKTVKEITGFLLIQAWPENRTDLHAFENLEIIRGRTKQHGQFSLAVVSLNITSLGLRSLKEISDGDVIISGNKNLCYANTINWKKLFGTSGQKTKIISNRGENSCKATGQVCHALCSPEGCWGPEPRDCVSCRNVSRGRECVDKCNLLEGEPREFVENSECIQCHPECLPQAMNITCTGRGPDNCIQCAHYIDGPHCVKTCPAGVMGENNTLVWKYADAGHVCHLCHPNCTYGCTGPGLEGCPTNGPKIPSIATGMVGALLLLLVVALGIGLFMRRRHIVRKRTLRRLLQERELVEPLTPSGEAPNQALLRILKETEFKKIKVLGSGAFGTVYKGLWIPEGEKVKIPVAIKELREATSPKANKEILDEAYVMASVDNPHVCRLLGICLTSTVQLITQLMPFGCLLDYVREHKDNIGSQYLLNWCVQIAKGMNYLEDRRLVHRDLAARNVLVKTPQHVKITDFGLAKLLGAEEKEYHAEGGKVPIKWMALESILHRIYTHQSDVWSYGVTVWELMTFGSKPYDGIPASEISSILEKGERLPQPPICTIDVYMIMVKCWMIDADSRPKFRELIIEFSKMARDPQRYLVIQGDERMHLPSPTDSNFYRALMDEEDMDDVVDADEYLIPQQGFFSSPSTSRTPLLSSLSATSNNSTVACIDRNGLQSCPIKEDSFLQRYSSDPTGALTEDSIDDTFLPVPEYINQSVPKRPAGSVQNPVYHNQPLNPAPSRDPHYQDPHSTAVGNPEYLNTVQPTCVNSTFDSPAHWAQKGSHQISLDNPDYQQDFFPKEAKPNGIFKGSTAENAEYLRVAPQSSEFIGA

C[C@H](CS)C(=O)N[C@H](Cc1c[nH]c2ccccc12)C(=O)O
MIC of meropenem (Escherichia coli; VIM-1 producing; 10 µM, with: meropenem): 8 µg/mL

CC(C)C[C@H](NC(=O)[C@H](CC(=O)O)NC(=O)[C@@H]1CCCN1C(=O)[C@@H](NC(=O)CNC(=O)[C@H](CCC(=O)O)NC(=O)[C@H](CO)NC(=O)[C@H](CO)NC(=O)[C@H](CC(N)=O)NS(=O)(=O)c1cccc2c(N(C)C)cccc12)C(C)C)C(=O)N[C@@H](CC(C)C)C(=O)N[C@H](C(=O)O)C(C)C
Kd (Protein PALS1, PDZ domain (PALS1, Homo sapiens, UniProt Q8N3R9, F318W); fluorescence titration; pH 7.2, 25 °C): 130000 ± 10000 nM

CC[C@H](C)[C@H](NC(=O)[C@H](Cc1ccccc1)NC(=O)[C@H](C)NC(=O)[C@H](CCCNC(=N)N)NC(=O)CNC(=O)CNC(=O)CNC(=O)CNC(=O)[C@H](CCSC)NC(=O)[C@H](Cc1ccc(O)cc1)NC(=O)[C@@H]1CCCN1C(=O)[C@@H](NC(=O)[C@H](C)NC(=O)[C@H](CO)NC(=O)[C@H](CO)NC(=O)[C@H](CC(C)C)NC(=O)[C@H](Cc1c[nH]c2ccccc12)NC(=O)[C@H](Cc1ccc(O)cc1)NC(=O)[C@H](Cc1c[nH]cn1)NC(=O)[C@H](CS)NC(=O)[C@H](CO)NC(=O)[C@H](Cc1ccc(O)cc1)NC(=O)[C@@H](N)CO)C(C)C)C(=O)N[C@@H](C)C(=O)N[C@@H](CO)C(=O)N[C@@H](CCCNC(=N)N)C(=O)N[C@@H](CCCNC(=N)N)C(=O)N[C@H](C(=O)N[C@@H](CCCNC(=N)N)C(=O)N[C@@H](CCCNC(=N)N)C(=O)N1CCC[C@H]1C(=O)O)[C@@H](C)CC
Kd (PRXC1A (Armoracia rusticana, UniProt P00433); peptide ELISA; synthetic peptide; 45 min, with: HRP from 200 nM): 30 nM

CC(=O)NC1C(OC2C(CO)OC(OC3C(CO)OC(O)C(O)C3O)C(O)C2O)OC(CO)C(O)C1OC1OC(CO)C(O)C(O)C1O (stereo not drawn)
Kd (hly; binding; pH 5.5): 567 nM

O=C(NS(=O)(=O)OC[C@H]1O[C@@H](n2cnc3c(NCc4ccccc4)ncnc32)[C@H](O)[C@@H]1O)c1ccccc1O
Kd (Salicyl-AMP ligase / salicyl-S-ArCP synthetase (Mycobacterium tuberculosis, UniProt P71716); binding): 136 ± 8 nM

COc1ccc(CN[C@@H]2CO[C@H](C(c3ccccc3)c3ccccc3)C[C@H]2O)cc1
inhibition (ADRA1B (Homo sapiens, UniProt P35368); radioligand binding; 10 µM, with: [3H]prazosin): 24.8%

NC[C@@H](NC[C@@H]1CCCN1C[C@@H](CO)NC[C@@H](NCCc1ccc(-c2ccccc2)cc1)c1ccccc1)c1ccccc1
potentiation of amikacin (Klebsiella pneumoniae; bacterial growth; 24 µM, fold shift of IC50, with: amikacin): 2.2 fold

Fc1ccc(-c2cc(Cn3ccnc3)c3ccccc3c2)cc1
Kd (cyp121; binding): 1300 ± 270 nM

Cn1c(=O)cc(OCc2cn(C3C[C@H]4CC[C@@H](C3)[N+]4(C)C)nn2)c2ccccc21 (stereo partly drawn)
Kd (Soluble acetylcholine receptor (Aplysia californica, UniProt Q8WSF8); binding, scintillation proximity; with: [3H]epibatidine): 24 ± 6.8 nM

CC(C)C[C@@H](NC(=O)[C@H](NC(=O)[C@H]1CCCN1)[C@H](C)O)C(=O)N[C@H](Cc1c[nH]cn1)C(=O)N[C@@H](C(=O)N[C@H](Cc1c[nH]cn1)C(=O)N[C@H](CC(N)=O)C(=O)N[C@H](CCCNC(=N)N)C(=O)N[C@H](CCCNC(=N)N)C(=O)N[C@H](CCCNC(=N)N)C(=O)N[C@H](CCCNC(=N)N)C(=O)N[C@H](CCCNC(=N)N)C(N)=O)[C@H](C)O
incidence of adverse events (phase I single ascending dose; healthy male subjects; 4 mg, total events): 16.7%

CC(=O)NC1C(O)CC(OC(CO)C(O)C2OC(OC(CO)C(O)C3OC(OC4C(O)C(CO)OC(OC5C(CO)OC(O)C(O)C5O)C4O)(C(=O)O)CC(O)C3NC(C)=O)(C(=O)O)CC(O)C2NC(C)=O)(C(=O)O)OC1C(O)C(O)CO (stereo not drawn)
Kd (hly; binding; pH 5.5): 9.4 nM

Fc1ccc(-c2ccc3c(Cn4ccnc4)c[nH]c3c2)cc1
Kd (cyp121; binding): 5900 ± 2000 nM

Cc1c([N+](=O)[O-])c(C)c([N+](=O)[O-])c(C(C)(C)C)c1[N+](=O)[O-]
Kd (EGFR (Homo sapiens, UniProt P00533); binding, surface plasmon resonance; extracellular domain): ~259000 nM

NCCNCCSc1ccccc1
pKa (spectrophotometry; pH 5.4): 5.63

CCC(c1ccc(-c2ccc(F)c(F)c2)c(F)c1)n1ccnc1 (stereo not drawn)
Kd (cyp121; binding): 4600 ± 700 nM
